# Measured values gathered from unrelated publications.
# Every numbered part comes from another study and shows a few of its results, in no order. “And” joins repeats or separate records; there may be more than shown.
# Chain of UniProt Q96SW2 (whole entry, looked up): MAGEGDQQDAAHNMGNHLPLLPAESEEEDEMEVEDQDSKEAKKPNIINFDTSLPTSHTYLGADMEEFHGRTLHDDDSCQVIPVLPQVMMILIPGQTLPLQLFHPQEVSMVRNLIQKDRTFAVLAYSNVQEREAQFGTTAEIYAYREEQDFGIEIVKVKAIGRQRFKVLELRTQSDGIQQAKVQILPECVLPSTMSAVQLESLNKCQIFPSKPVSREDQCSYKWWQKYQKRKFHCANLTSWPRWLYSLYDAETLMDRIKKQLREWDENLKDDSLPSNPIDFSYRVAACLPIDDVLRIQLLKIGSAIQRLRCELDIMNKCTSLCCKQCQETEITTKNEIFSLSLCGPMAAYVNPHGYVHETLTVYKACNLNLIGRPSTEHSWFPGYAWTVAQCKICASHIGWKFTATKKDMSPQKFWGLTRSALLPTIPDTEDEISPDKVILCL
# Chain of UniProt Q9UKS7 (whole entry, looked up): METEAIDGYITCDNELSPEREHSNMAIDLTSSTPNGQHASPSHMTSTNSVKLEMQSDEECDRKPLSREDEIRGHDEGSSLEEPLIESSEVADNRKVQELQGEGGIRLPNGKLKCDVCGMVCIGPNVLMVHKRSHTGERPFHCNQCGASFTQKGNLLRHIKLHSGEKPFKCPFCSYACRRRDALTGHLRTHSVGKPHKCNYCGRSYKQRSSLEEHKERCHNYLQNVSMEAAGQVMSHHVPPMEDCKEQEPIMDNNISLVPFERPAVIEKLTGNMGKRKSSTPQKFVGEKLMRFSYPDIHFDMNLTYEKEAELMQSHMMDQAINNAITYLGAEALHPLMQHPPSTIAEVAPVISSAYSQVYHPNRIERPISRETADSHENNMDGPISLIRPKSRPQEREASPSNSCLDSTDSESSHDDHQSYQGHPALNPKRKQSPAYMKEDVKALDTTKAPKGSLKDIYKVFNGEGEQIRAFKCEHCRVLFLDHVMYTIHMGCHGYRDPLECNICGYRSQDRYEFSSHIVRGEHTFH

# Study 1 — observed: enzyme activity; mode: inhibitor; concentration: 77 µM; baseline: untreated
# Target: DNA polymerase theta, ATPase domain (POLQ, Homo sapiens, UniProt O75417)
# Chain of UniProt O75417 (whole entry, unmodified, looked up): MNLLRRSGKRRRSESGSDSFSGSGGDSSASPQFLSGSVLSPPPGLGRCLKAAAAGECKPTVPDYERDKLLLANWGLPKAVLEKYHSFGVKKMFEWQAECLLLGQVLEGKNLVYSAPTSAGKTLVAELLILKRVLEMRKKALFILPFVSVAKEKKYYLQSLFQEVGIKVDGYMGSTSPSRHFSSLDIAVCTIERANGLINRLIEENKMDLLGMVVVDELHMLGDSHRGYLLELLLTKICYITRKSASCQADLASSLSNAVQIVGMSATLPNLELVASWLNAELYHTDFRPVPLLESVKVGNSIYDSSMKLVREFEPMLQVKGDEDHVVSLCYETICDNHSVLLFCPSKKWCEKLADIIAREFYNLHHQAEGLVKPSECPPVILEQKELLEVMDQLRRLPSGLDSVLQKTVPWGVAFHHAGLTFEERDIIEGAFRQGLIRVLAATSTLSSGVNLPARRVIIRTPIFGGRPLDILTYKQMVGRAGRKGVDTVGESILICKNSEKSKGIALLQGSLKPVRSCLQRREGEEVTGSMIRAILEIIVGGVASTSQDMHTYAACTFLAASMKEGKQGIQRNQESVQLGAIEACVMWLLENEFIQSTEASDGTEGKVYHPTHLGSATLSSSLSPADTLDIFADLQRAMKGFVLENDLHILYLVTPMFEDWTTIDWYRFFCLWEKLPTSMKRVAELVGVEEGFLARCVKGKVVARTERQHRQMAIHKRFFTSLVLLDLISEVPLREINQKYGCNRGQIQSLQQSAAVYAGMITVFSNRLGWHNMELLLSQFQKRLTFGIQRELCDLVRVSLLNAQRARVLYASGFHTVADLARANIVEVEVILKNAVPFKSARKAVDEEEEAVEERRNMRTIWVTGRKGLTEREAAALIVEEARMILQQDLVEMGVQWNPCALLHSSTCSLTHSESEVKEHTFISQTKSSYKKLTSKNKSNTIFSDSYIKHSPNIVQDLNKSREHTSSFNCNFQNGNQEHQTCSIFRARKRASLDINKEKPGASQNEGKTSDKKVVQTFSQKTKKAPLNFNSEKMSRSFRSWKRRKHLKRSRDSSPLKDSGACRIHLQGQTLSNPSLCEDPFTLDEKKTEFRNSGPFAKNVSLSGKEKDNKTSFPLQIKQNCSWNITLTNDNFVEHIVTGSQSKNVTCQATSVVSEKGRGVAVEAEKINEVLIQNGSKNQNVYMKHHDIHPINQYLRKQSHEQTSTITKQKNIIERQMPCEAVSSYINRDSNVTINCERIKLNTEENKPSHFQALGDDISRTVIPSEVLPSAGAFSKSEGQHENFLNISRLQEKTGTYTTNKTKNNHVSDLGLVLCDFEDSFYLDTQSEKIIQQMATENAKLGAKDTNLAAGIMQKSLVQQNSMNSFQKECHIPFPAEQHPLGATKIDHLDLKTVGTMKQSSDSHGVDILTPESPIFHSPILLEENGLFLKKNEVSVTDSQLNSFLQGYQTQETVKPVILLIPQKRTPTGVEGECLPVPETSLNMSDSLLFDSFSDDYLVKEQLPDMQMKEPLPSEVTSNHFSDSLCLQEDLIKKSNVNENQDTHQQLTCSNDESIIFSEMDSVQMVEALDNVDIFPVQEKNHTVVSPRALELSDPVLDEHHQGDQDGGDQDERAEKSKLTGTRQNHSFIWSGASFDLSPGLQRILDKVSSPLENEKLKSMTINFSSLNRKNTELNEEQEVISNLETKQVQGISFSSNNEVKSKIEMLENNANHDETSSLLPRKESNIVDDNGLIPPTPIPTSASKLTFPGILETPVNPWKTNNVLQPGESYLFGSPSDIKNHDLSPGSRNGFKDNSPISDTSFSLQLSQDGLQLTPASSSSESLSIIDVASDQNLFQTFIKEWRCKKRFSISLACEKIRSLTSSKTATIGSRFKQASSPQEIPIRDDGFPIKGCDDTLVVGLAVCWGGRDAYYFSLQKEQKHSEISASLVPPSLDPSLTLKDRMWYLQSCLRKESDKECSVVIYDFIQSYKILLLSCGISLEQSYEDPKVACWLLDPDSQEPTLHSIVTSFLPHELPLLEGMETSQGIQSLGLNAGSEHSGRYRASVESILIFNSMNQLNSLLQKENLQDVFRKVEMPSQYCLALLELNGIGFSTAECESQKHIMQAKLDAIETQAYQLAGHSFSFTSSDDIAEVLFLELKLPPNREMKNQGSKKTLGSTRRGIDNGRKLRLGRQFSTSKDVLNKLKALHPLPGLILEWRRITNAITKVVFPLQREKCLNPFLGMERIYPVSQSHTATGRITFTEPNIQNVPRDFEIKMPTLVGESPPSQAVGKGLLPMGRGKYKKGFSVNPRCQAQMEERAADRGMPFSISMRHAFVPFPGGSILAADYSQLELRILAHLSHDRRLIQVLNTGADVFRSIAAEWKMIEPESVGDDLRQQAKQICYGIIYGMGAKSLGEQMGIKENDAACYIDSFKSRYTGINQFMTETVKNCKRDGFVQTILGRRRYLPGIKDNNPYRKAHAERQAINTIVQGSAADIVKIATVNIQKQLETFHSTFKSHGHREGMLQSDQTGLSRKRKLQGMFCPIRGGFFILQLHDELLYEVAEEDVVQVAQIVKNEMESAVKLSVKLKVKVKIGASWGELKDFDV
Structure (SMILES),remaining activity
NCC(O)c1ccc(O)cc1 (racemic),101%
CCN1C[C@]2(C)CC[C@H](OC)[C@@]34C1[C@]1(OCO[C@@]15C[C@H](OC)[C@H]1C[C@]3(O)[C@@H]5[C@H]1OC)[C@@H](OC(C)=O)[C@H]24,102%
CN1[C@@H]2CC(=O)C[C@H]1[C@H](O)C2,83.9%

# Study 2 — observed: ligand displacement; concentration: 10 µM
# Target: Muscarinic acetylcholine receptor M3 (CHRM3, Homo sapiens, UniProt P20309)
# Chain of UniProt P20309 (whole entry, looked up): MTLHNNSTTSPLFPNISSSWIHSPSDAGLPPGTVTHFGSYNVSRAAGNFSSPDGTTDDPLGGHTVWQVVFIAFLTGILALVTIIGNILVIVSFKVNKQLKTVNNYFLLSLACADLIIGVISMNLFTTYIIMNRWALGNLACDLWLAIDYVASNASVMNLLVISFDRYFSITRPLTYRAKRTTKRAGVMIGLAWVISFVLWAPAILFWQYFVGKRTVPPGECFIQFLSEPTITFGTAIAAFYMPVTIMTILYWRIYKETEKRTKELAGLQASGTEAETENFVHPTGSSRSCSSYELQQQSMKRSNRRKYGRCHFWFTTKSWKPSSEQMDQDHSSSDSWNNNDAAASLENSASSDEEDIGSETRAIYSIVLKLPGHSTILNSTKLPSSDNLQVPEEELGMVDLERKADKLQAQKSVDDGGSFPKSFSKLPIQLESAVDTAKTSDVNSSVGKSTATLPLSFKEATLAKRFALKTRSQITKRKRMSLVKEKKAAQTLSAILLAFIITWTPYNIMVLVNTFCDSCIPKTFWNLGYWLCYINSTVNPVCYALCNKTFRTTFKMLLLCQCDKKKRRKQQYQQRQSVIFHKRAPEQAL
Structure (SMILES),inhibition [%]
CN([C@@H]1CCc2c(CC(=O)O)c3ccccc3n2C1)S(=O)(=O)c1ccc(F)cc1,-17.2
Cc1c(NC(=O)c2cc(C(N)=O)nc3cc(F)ccc23)c(C(F)(F)F)nn1Cc1ccc(C#N)cc1,-6.5
COc1cc(-c2cn(C3CCc4c(F)cccc4N(CC(F)(F)F)C3=O)nn2)ccc1-n1cnc(C)c1 (stereo not drawn),-4.42
NS(=O)(=O)c1cc(NC(=O)Cc2ccccc2)ccc1Oc1cccc(Cl)c1,-0.53
N#CC1(c2ccccn2)CCN(Cc2cc(C(=O)N3CCCC3)c(=O)n3ccccc23)CC1,-12.9
C[C@@H]1CN(c2cc(-c3n[nH]c4ccc(OC5(C)CC5)cc34)ncn2)C[C@H](C)O1,7.93
c1ccc(N2CCN(Cc3nc4ccccc4[nH]3)CC2)nc1,-1.54
CN1CCN(c2cnc3c(C4CCN(C(=O)c5ccc(OC(F)(F)F)cc5N)CC4)ncnc3c2)CC1,27.1
CNC(=O)Nc1ccc2c(c1)CC[C@]21OC(=O)N(CC(=O)N(Cc2ccc(F)cc2)[C@@H](C)C(F)(F)F)C1=O,9.06
CN(C)C(=O)c1sc2nc(N3CCC(S(C)(=O)=O)CC3)cc(C(F)(F)F)c2c1N,7.05
Cc1c(N2CCNCC2)nc2ccc(Br)cc2c1C(=O)NC[C@H](CCC(=O)O)c1ccccc1Cl,13.7
O=C(N[C@H]1CCCCC/C=C\C2C[C@@]2(C(=O)O)NC(=O)[C@@H]2C[C@@H](Oc3ccncc3)CN2C1=O)OC1CCCC1 (stereo partly drawn),-5.57
Cc1cc(Nc2nccc(C)n2)cc(-c2cnc([C@@]3(O)CC[C@H](C(=O)O)C(C)(C)C3)s2)c1,17.4
O=C1NC(c2ccccn2)Sc2ccccc21 (stereo not drawn),-13.5
Cn1nc(C(=O)NCc2ccc(C(=O)O)cc2)cc1-c1ccc2[nH]ccc2c1,-0.66
O=c1nc(-c2ccccn2)sc2ccccc12,-12.5
c1ccc(C2CCN(c3cnc4c(N5CCOCC5)nccn34)CC2)cc1,-12.1
COc1ccc2cc(OCC3(C(=O)O)CN(C(=O)c4ccc(F)cc4)C3)ccc2c1,19.2
CO[C@H]1CC[C@H](CNc2ccc(S(=O)(=O)NC(=O)c3ccc(N4CCN(CC5=C(c6ccc(Cl)cc6)CC(C)(C)CC5)CC4)cc3Oc3cnc4[nH]ccc4c3)cc2[N+](=O)[O-])CC1,3.65
O=C(NCCCC1CCCCC1)c1ccc(CNC(=O)c2cnn(-c3ccccc3)c2C(F)(F)F)cc1,19.5
Nc1nc(NCc2ccccc2)nc(-c2ccccc2CO)n1,36
Nc1nc(NCc2ccccc2)nc(-c2cccc(CO)c2)n1,21.6
COc1cc(C(=O)O)ncc1C#Cc1ccccc1NS(=O)(=O)c1cccc2c(N(C)C)ccnc12,-24.4
Cc1ncc(-c2cc(Cl)ccc2F)cc1-n1c(=O)n(CC(N)=O)c2ccccc21,-5.28
COc1cccc(NC(=O)c2nc3scc(CN(C)Cc4ccccc4)c3c(=O)[nH]2)c1,-11.2

# Study 3 — host: C57BL/6 CES1-/- mouse, both sexes
# SMILES: CC(=O)N[C@@H](Cc1c[nH]c2ccccc12)C(=O)N[C@@H](CCC(=O)C=[N+]=[N-])C(=O)OC(C)C
conditions,body weight
"0.1 mg/kg, day 18",104% and 100% and 105% and 96.2% and 114% and 118%
"1 mg/kg, day 16",100% and 90.9% and 93.1%
"0.3 mg/kg, day 7",100%
"0.3 mg/kg, day 9",100% and 95.7% and 96.4%

# Study 4 — cell line: Huh-7; concentration: 10 µM; time: 24 h
Compound,viability [%]
CC(CCc1ccccc1)NC(C)C(O)c1ccc(O)cc1 (stereo not drawn),99.1
c1ccc2c(c1)sc1ccccc12,100
COc1cc2c(cc1OC)[C@@]13CCN4CC5=CCO[C@H]6CC(=O)N2[C@H]1[C@H]6[C@H]5C[C@H]43,101
Oc1ccc(Cl)cc1,85.5
Cc1cccc(C)c1N=C1NCCCS1,91.2

# Study 5 — observed: enzyme activity; mode: inhibitor; concentration: 10 µM
# Target: Calcium/calmodulin-dependent protein kinase type II subunit alpha (CAMK2A, Homo sapiens, UniProt Q9UQM7)
# Chain of UniProt Q9UQM7 (whole entry, looked up): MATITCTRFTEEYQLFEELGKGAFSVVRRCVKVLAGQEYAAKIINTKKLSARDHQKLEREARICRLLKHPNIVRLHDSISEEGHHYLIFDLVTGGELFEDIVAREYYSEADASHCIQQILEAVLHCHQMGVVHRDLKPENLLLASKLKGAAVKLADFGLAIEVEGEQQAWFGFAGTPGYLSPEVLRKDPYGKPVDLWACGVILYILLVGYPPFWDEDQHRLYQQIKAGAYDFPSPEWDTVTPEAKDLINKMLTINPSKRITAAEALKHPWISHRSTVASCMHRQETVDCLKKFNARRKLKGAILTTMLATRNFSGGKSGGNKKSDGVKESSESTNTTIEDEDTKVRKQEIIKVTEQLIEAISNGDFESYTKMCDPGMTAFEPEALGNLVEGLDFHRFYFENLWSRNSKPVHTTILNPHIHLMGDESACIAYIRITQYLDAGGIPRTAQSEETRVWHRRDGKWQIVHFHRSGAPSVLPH
SMILES,inhibition
CCN1C[C@]2(COC)[C@H](O)C[C@H](OC)[C@]34C1[C@H]([C@H](OC)[C@H]23)[C@]1(O)[C@H]2[C@@H](O)[C@](O)(C[C@H]24)[C@@H](OC)[C@@H]1O,-4%
Oc1cc(O)cc(/C=C/c2ccc(O)cc2O)c1,87%
CCN1C[C@]2(C)CC[C@H](O)[C@]34C1[C@@H](C[C@H]23)[C@@]1(O)C[C@H](OC)[C@H]2C[C@@H]4[C@@H]1[C@H]2O,-5%
Cc1ccc(C=O)cc1,2%
CCC(C)C(=O)O[C@@H]1[C@@H](OC(C)=O)[C@]2(C)[C@H](C(C)=O)CC[C@@]23O[C@]32CC[C@H]3C[C@@H](O[C@H]4C[C@@H](OC)[C@H](O[C@@H]5O[C@H](C)[C@@H](O)[C@@H](OC)[C@H]5O)[C@@H](C)O4)CC[C@]3(C)[C@@H]12 (stereo partly drawn),14%
CCN(CC)N=O,5%

# Study 6 — observed: AlphaScreen signal; method: AlphaScreen counter screen; sample: His6 peptide without bromodomain; concentration: 50 µM; setting: assay interference check
Structure (SMILES),inhibition
CN1C(=O)C(=CNc2ccc(Cl)cc2)C(=O)NC1=S,10.1%
Cc1cccc(NC=C2C(=O)NC(=O)N(c3ccc(F)cc3)C2=O)c1,4.25%
CCOc1ccc(NC=C2C(=O)NC(=O)N(c3ccccc3)C2=O)cc1,6.4%
CCN1C(=O)NC(=O)C(=CNc2ccc(Cl)c(C(=O)O)c2)C1=O,7.4%
Cc1cccc(N2C(=O)NC(=O)C(=CNc3ccc4c(c3)OCO4)C2=O)c1,11.8%
N#CC(C#N)=Cc1ccc(O)c(O)c1,29.8%
COc1ccc2c(c[n+](C)c3c4cc5c(cc4ccc23)OCO5)c1OC,2.75%

# Single results of other studies
Structure (SMILES),target,test,test system,conditions,measurement,result
O=C1CCC(N2Cc3c(ccc4c3OCC43CCN(CC4CCCCC4)CC3)C2=O)C(=O)N1 (stereo not drawn),"CRBN/Zinc finger protein Helios (Homo sapiens, UniProt Q96SW2+Q9UKS7)","degrader, HiBiT",HEK293,0.1694 nM,protein remaining,105%

# Repeated from above (study 2):
Structure (SMILES),inhibition [%]
O=C(NCCCC1CCCCC1)c1ccc(CNC(=O)c2cnn(-c3ccccc3)c2C(F)(F)F)cc1,19.5
COc1cccc(NC(=O)c2nc3scc(CN(C)Cc4ccccc4)c3c(=O)[nH]2)c1,-11.2
Cc1cc(Nc2nccc(C)n2)cc(-c2cnc([C@@]3(O)CC[C@H](C(=O)O)C(C)(C)C3)s2)c1,17.4
CN1CCN(c2cnc3c(C4CCN(C(=O)c5ccc(OC(F)(F)F)cc5N)CC4)ncnc3c2)CC1,27.1
Cn1nc(C(=O)NCc2ccc(C(=O)O)cc2)cc1-c1ccc2[nH]ccc2c1,-0.66
C[C@@H]1CN(c2cc(-c3n[nH]c4ccc(OC5(C)CC5)cc34)ncn2)C[C@H](C)O1,7.93
COc1ccc2cc(OCC3(C(=O)O)CN(C(=O)c4ccc(F)cc4)C3)ccc2c1,19.2
O=C(N[C@H]1CCCCC/C=C\C2C[C@@]2(C(=O)O)NC(=O)[C@@H]2C[C@@H](Oc3ccncc3)CN2C1=O)OC1CCCC1 (stereo partly drawn),-5.57
Nc1nc(NCc2ccccc2)nc(-c2ccccc2CO)n1,36
